{"data": "Results of several laboratories", "note": "A part holds a random share of what one study measured. ± marks the error that the study gave."}
{"data": "Sample 1", "organism": "Severe acute respiratory syndrome coronavirus 2", "effect on": "viral replication", "tested at": "10 µM"}
{"SMILES": "CCCCN1COc2c(cc(Cl)c3cccnc23)C1", "inhibition": "81%"}
{"SMILES": "O=C(NC1CCN(Cc2ccccc2)CC1)c1cc2c(=O)n(Cc3ccccc3)ccc2s1", "inhibition": "57%"}
{"SMILES": "C=C(C#N)CN1CCN(CC(=C)C#N)CC1", "inhibition": "59%"}
{"SMILES": "Cc1cccc(NC(=O)CS(=O)(=O)c2nc(-c3ccccc3)cn2-c2ccc(Cl)cc2)c1C", "inhibition": "92%"}
{"SMILES": "Cc1ccc(-c2cc(O)c3c(c2)CN(C(=O)Nc2ccccc2)CCO3)s1", "inhibition": "67%"}
{"SMILES": "COc1ccc(NC(=O)N2c3ccccc3CC2c2nc(C(C)C)no2)c(C)c1 (stereo not shown)", "inhibition": "55%"}
{"SMILES": "CNC(=O)C(C#N)(Cc1cc(Cl)cc2c1OCOC2)Cc1cc(Cl)cc2c1OCOC2", "inhibition": "80%"}
{"SMILES": "O=C(NCC(F)(F)F)c1ccc(CN(Cc2cc(Cl)cc3c2OCOC3)C2CC2)cc1", "inhibition": "41%"}
{"SMILES": "O=C(NC1CCCCCC1)c1ccc(-c2ccc(F)cc2)nc1", "inhibition": "52%"}
{"SMILES": "N=C(N)Nc1ccc(C(=O)Oc2ccc3cc(C(=N)N)ccc3c2)cc1", "inhibition": "82%"}
{"SMILES": "N#CC(C#N)=C/C=C(/Sc1ncc(C(F)(F)F)cc1Cl)c1ccc(Cl)cc1", "inhibition": "53%"}
{"SMILES": "CCCN(CCC)c1nc(N)ncc1[N+](=O)[O-]", "inhibition": "53%"}
{"SMILES": "CC[C@@]1(O)C(=O)OCc2c1cc1n(c2=O)Cc2cc3cc(O)ccc3nc2-1", "inhibition": "61%"}
{"SMILES": "c1ccc(Nc2nccc(-c3ccncc3)n2)cc1", "inhibition": "58%"}
{"SMILES": "Cc1cccc(-c2[nH]c(C(C)(C)C)nc2-c2ccc3c(c2)OCO3)n1", "inhibition": "61%"}
{"SMILES": "Cc1nc2cc(-c3cccc4ccnn34)ccc2s1", "inhibition": "84%"}
{"SMILES": "N#Cc1c(Cl)c(Cl)c(Cl)c(Cl)c1C#N", "inhibition": "89%"}
{"SMILES": "CS(=O)(=O)c1ncc(Cl)c(C(=O)N2CCN(C(c3ccccc3)c3ccccc3)CC2)n1", "inhibition": "66%"}
{"SMILES": "CC(=O)c1cc2cc3c4c(c2oc1=O)CCCN4CCC3", "inhibition": "84%"}
{"SMILES": "Cc1ccccc1CN1C[C@@H]2C[C@@H](c3cc4ccccc4o3)N3CCC[C@@]23C1=O", "inhibition": "48%"}
{"SMILES": "Clc1cc2c(c3ncccc13)OCN(C1CCCC1)C2", "inhibition": "72%"}
{"data": "Mixed results", "rep papain-like protease": "Replicase polyprotein 1ab, papain-like protease (rep, Severe acute respiratory syndrome coronavirus 2, UniProt P0DTD1)", "rep main protease": "Replicase polyprotein 1ab, main protease (rep, Severe acute respiratory syndrome coronavirus 2, UniProt P0DTD1)", "rep nsp14": "Replicase polyprotein 1ab, nsp14 (rep, Severe acute respiratory syndrome coronavirus 2, UniProt P0DTD1)"}
{"Compound": "NCc1cccnc1", "tested on": "rep papain-like protease", "setting": "concentration not given, C111S mutant", "how to read": "baseline: positive control", "quantity": "activity", "value": "12.7%"}
{"Compound": "N#Cc1ccc(N2CCC(c3ccc(C(=O)O)cc3)=N2)cc1Cl", "tested on": "SARS-CoV-2", "test": "viral replication", "test system": "Calu-3, B.1.617.2 Delta variant", "setting": "72 h", "quantity": "EC50", "value": "61.7 µM"}
{"Compound": "Nc1ncnc2c1ncn2[C@@H]1O[C@H](CO)[C@@H](O)[C@@H]1O", "tested on": "SARS-CoV-2", "test": "cytopathic effect", "test system": "Vero C1008, Omicron BA.1", "setting": "48 h", "quantity": "IC100", "value": "8.05 ± 0.29 µM"}
{"Compound": "COc1ccc(-c2cc(=O)c3c(O)c(OC)c(OC)cc3o2)cc1", "tested on": "rep main protease", "test": "protease activity, inhibitor, FRET", "setting": "50 µM", "quantity": "inhibition", "value": "-29.8%"}
{"Compound": "N[C@@H](CC(=O)N1CCn2c(nnc2C(F)(F)F)C1)Cc1cc(F)c(F)cc1F", "tested on": "SARS-CoV-2", "test": "viral replication", "test system": "Vero E6, B.1.617 (Kappa)", "setting": "48 h", "quantity": "IC50", "value": "1.89 µM"}
{"Compound": "CC(C)[C@H](NC(=O)c1ccc2ccccc2n1)C(=O)N[C@@H](CC(=O)O)C(=O)COc1c(F)cccc1F", "tested on": "rep papain-like protease", "setting": "concentration not given, C111S mutant", "how to read": "baseline: positive control", "quantity": "activity", "value": "21%"}
{"Compound": "CCCCCCC#Cc1cncc(-c2nnc(SCc3ccc(Cl)cc3)n2C)c1", "tested on": "Mycobacterium tuberculosis", "test system": "Erdman cydA mutant", "quantity": "IC50", "value": "5.8 ± 0.612 µM"}
{"Compound": "CC(C)[C@H](NC(=O)[C@H](CCCNC(=N)N)NC(=O)N[C@@H](Cc1ccccc1)C(=O)O)C(=O)N[C@H](C=O)CCCNC(=N)N", "tested on": "SARS-CoV-2", "test": "viral replication", "test system": "Vero C1008, B.1.351", "quantity": "EC50", "value": "26.1 µM"}
{"Compound": "OC[C@H]1O[C@@H](n2cnc3c(N[C@@H]4CCOC4)ncnc32)[C@H](O)[C@@H]1O", "tested on": "Severe acute respiratory syndrome coronavirus 2", "test": "viral replication, inhibitor", "test system": "Vero C1008", "setting": "48 h", "quantity": "EC90", "value": "11.9 µM"}
{"Compound": "COc1ccc(-c2cc(=O)c3c(OC)c(O)c(O)cc3o2)cc1", "tested on": "rep main protease", "test": "protease activity, inhibitor, FRET", "setting": "50 µM", "quantity": "inhibition", "value": "79.9%"}
{"Compound": "CN(C)CCn1c(C(=O)N2CCN(c3ccccc3Cl)CC2)c(C(c2ccc(O)cc2)c2ccc(O)cc2)c2ccccc21", "tested on": "SARS-CoV-2", "test": "viral replication", "test system": "Huh-7-ACE2, USA-WA1/2020", "quantity": "EC90", "value": "1.64 µM"}
{"Compound": "O=C(NC1CCN(c2ncnc3[nH]cnc23)CC1)c1cccc(S(=O)(=O)N2CCCCC2)c1", "tested on": "rep nsp14", "test": "NSP14 enzyme activity, inhibitor", "setting": "0.01221 µM", "quantity": "inhibition", "value": "5.01%"}
{"Compound": "CCOC(=O)C1=C[C@@H](OC(CC)CC)[C@H](NC(C)=O)[C@@H](N)C1", "tested on": "influenza virus", "test system": "compound-resistant", "quantity": "EC50", "value": "> 10 µM"}
{"Compound": "CC[C@H](C)[C@@H]1NC(=O)[C@H](CCC(N)=O)NC(=O)[C@H](CCC(=O)O)NC(=O)[C@H](CCCNC(=N)N)NC(=O)[C@@H]2CCCN2C(=O)[C@H](CCCNC(=N)N)NC(=O)[C@H](CCCNC(=N)N)NC(=O)[C@H](Cc2ccc(O)cc2)NC(=O)CSC[C@@H](C(=O)NCC(N)=O)NC(=O)[C@H](Cc2ccccc2)NC(=O)[C@H](C(C)C)NC(=O)[C@H](Cc2c[nH]c3ccccc23)NC(=O)[C@H](CC(C)C)NC(=O)[C@H](CO)NC(=O)CNC(=O)[C@H]([C@@H](C)CC)NC(=O)[C@H]([C@@H](C)CC)NC1=O", "tested on": "SARS-CoV-2 spike protein Alpha variant", "test": "binding", "quantity": "Kd", "value": "0.039 µM"}
{"Compound": "CC#CCn1c(N2CCC[C@@H](N)C2)nc2c1c(=O)n(Cc1nc(C)c3ccccc3n1)c(=O)n2C", "tested on": "SARS-CoV-2", "test": "viral replication", "test system": "Vero E6, B.1.617.2 (Delta)", "setting": "48 h", "quantity": "IC50", "value": "2.32 µM"}
{"Compound": "CCC(CC)COC(=O)[C@H](C)N[P@](=O)(OC[C@H]1O[C@@](C#N)(c2ccc3c(N)ncnn23)[C@H](O)[C@@H]1O)Oc1ccccc1", "tested on": "SARS-CoV-2", "test": "viral replication", "test system": "Calu-3, B.1.617.2 Delta variant", "setting": "72 h", "quantity": "EC50", "value": "2.78 µM"}
{"Compound": "CCC(CC)[C@H](NC(C)=O)[C@@H]1[C@H](O)[C@@H](C(=O)O)C[C@H]1N=C(N)N", "tested on": "neuraminidase (Influenza B virus, UniProt C0LT34, G407S)", "quantity": "IC50", "value": "0.0015 ± 0.0003 µM"}
{"Compound": "O=C(NC1CCN(c2ncnc3[nH]cnc23)CC1)c1cccc(S(=O)(=O)N2CCCC2)c1", "tested on": "rep nsp14", "test": "NSP14 enzyme activity, inhibitor", "setting": "0.7812 µM", "quantity": "inhibition", "value": "19.8%"}
{"Compound": "N#C[C@@]1(n2ccc(N)nc2=O)O[C@H](CO)[C@@H](O)[C@H]1O", "tested on": "SARS-CoV-2", "test": "viral replication", "test system": "Vero, Gamma", "quantity": "EC50", "value": "0.7 ± 0.004 µM"}
{"Compound": "CCC(CC)COC(=O)[C@H](C)N[P@](=O)(OC[C@H]1O[C@@](C#N)(c2ccc3c(N)ncnn23)[C@H](O)[C@@H]1O)Oc1ccccc1", "tested on": "SARS-CoV-2", "test": "viral replication", "test system": "Vero C1008, B.1.1.7", "quantity": "EC50", "value": "0.9 µM"}
{"Compound": "CO[C@H]1/C=C/O[C@@]2(C)Oc3c(C)c(O)c4c(O)c(c(/C=N/N5CCN(C)CC5)c(O)c4c3C2=O)NC(=O)/C(C)=C\\C=C\\[C@H](C)[C@H](O)[C@@H](C)[C@@H](O)[C@@H](C)[C@H](OC(C)=O)[C@@H]1C", "tested on": "Mycobacterium tuberculosis", "test system": "H37Rv mc2-6206 MmpL3 L567P", "quantity": "MIC80", "value": "0.076 µM"}
{"Compound": "CCC(CC)COC(=O)[C@H](C)N[P@](=O)(OC[C@H]1O[C@@](C#N)(c2ccc3c(N)ncnn23)[C@H](O)[C@@H]1O)Oc1ccccc1", "tested on": "SARS-CoV-2", "test": "viral replication", "test system": "Calu-3, Gamma", "quantity": "EC90", "value": "0.3 ± 0.02 µM"}
{"note": "Repeated from above (mixed results):"}
{"Compound": "O=C(NC1CCN(c2ncnc3[nH]cnc23)CC1)c1cccc(S(=O)(=O)N2CCCCC2)c1", "tested on": "rep nsp14", "test": "NSP14 enzyme activity, inhibitor", "setting": "0.01221 µM", "quantity": "inhibition", "value": "5.01%"}
{"Compound": "COc1ccc(-c2cc(=O)c3c(OC)c(O)c(O)cc3o2)cc1", "tested on": "rep main protease", "test": "protease activity, inhibitor, FRET", "setting": "50 µM", "quantity": "inhibition", "value": "79.9%"}
{"Compound": "N#C[C@@]1(n2ccc(N)nc2=O)O[C@H](CO)[C@@H](O)[C@H]1O", "tested on": "SARS-CoV-2", "test": "viral replication", "test system": "Vero, Gamma", "quantity": "EC50", "value": "0.7 ± 0.004 µM"}
{"Compound": "NCc1cccnc1", "tested on": "rep papain-like protease", "setting": "concentration not given, C111S mutant", "how to read": "baseline: positive control", "quantity": "activity", "value": "12.7%"}
{"Compound": "CO[C@H]1/C=C/O[C@@]2(C)Oc3c(C)c(O)c4c(O)c(c(/C=N/N5CCN(C)CC5)c(O)c4c3C2=O)NC(=O)/C(C)=C\\C=C\\[C@H](C)[C@H](O)[C@@H](C)[C@@H](O)[C@@H](C)[C@H](OC(C)=O)[C@@H]1C", "tested on": "Mycobacterium tuberculosis", "test system": "H37Rv mc2-6206 MmpL3 L567P", "quantity": "MIC80", "value": "0.076 µM"}
